Measured values gathered from unrelated publications.
Numbered parts are unrelated; each lists some results of a single study.

Block 1
Target: Ras GTPase-activating protein-binding protein 1, C-terminal RGG region (G3BP1, Homo sapiens, UniProt Q13283)
Chain of UniProt Q13283 (whole entry, looked up): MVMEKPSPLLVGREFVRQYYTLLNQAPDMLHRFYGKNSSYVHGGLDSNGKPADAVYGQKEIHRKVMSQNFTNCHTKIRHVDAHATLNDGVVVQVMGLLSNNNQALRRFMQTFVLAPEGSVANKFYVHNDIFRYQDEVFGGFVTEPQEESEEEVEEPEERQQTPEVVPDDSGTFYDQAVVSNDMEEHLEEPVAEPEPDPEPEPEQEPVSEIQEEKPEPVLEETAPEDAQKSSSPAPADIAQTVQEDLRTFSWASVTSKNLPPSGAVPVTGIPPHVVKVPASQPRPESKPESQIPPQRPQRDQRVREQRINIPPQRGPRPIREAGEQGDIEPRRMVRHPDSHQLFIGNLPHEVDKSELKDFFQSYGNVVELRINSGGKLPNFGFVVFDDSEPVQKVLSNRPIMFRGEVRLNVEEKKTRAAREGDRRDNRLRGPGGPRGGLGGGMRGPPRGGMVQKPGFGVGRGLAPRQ
Technique: RNA Bind-n-Seq
Form: RNA
Medium: in vitro
Concentration: 1 µM
Notes: whole 134-nt RNA, ends assumed
Added: 150 mM KCl
Reference: input library
Reading: higher = stronger binding
All sequences stand within: GGGAGUUCUACAGUCCGACGAUC … UGGAAUUCUCGGGUGUCAAGG
| Strand | log2 enrichment |
| --- | --- |
| UUGCAGAUGAGCUUAUGGGGGGCAAUCUUAAAAAGUCCACAGCAGAUGCAUCCGGCUCGAGGGGCCAUCAGCUUUGAAUAAAUGCUUGUU | -0.56 |
| CCUGUGCUACACAUCGUAUGUACCGAAUCAAACCCCCCCAAACCCCCAAACCCCCCCAAAAAAGUAUUAUGUUACGCCGUUCGGAUCUGC | -0.782 |
| UAUGGACAAGCAUAAUGGAACAGACAGGUUUGUGAACCAGCAGUUUCAAGAGGAAAAGUUAAAUAAAUUGCAGAAGUUACUUAUUCUUUU | -1.87 |
| CACAGACAACACGCUCCCACACAGACACAGAGGGAAGGGGUUGGGAUGGGGACAGGGUGCACAGCAGGGCGGGGUAGGACCCCAGCCCCU | -0.15 |
| AGUCCUGUGCUACACAUCGUAUGUACCGAAUCGGAAAAAAAGGUUUGGAAAAAAAGGAAAGUAUUAUGUUACGCCGUUCGGAUCUGCACU | -2.14 |
| GCAGGAAGUAAAAACAAAUGGAAAUGCUUCGGAUAGUGGCAGGGGUGUGGGUUGCUAAGGAAAGGGUGGGAUGGGAGUGGGUAAAGAGUU | 1.01 |
| CAAGUCCUGUGCUACACAUCGUAUGUACCGAAUCGGAAAAGGGAAAAGGAAAAGGGAAAGUAUUAUGUUACGCCGUUCGGAUCUGCACUU | -2.08 |
| UAACUUUAGAGGAGGAUCUGAUGGAUAUGGCAGUGGACGUGGAUUUGGGGAUGGCUAUAAUGGGUAUGGAGGAGGAUCUGGAGGUGGCAA | -0.201 |
| CAAGUCCUGUGCUACACAUCGUAUGUACCGAAUCGGAAAAAGGUUUUUGGAAAGGAAAGUAUUAUGUUACGCCGUUCGGAUCUGCACUUC | -1.94 |
| UCAAGUCCUGUGCUACACAUCGUAUGUACCGAAUCGGGAAAGGGAAAGGAAAGGGAAAGUAUUAUGUUACGCCGUUCGGAUCUGCACUUC | -1.51 |
| CUGUGCUACACAUCGUAUGUACCGAAUCGGAAAAAAAGGGGAAAAAAAGGGAAAAAAAGGGGAAAGUAUUAUGUUACGCCGUUCGGAUCU | -1.29 |
| UCUGAGGUCACCAAGCCUCCUCCUUGCUUGGAGAACUCCUCGCCUCCCUCCAGGAUUCCGGAGCCUGAAUCCCCAGCGAAGCCAAACGUC | -0.247 |
| AAGUCCUGUGCUACACAUCGUAUGUACCGAAUCGGAAAAAAAGGUUUUUGGAAAGGAAAGUAUUAUGUUACGCCGUUCGGAUCUGCACUU | -2.32 |
| CUGUGCUACACAUCGUAUGUACCGAAUCGGGGCCCCCCGGGGCCCCCCGGGCCCCCCGGGGAAAGUAUUAUGUUACGCCGUUCGGAUCUG | -2.27 |

Block 2
Target: RNA binding protein fox-1 homolog 2, RRM domain, GST-SBP tag (RBFOX2, Homo sapiens, UniProt O43251-10, residues 100-194)
Technique: RNA Bind-n-Seq
Form: RNA
Medium: in vitro
Concentration: 365 nM
Notes: natural RNA segment, single round, ends assumed
Reference: no-protein control
Reading: higher = stronger binding
All sequences stand within: GGGAGUUCUACAGUCCGACGAUC … UGGAAUUCUCGGGUGCCAA
Target sequence (chain): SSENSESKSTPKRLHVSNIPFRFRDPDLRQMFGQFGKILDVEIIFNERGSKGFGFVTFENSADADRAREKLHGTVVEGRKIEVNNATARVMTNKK
| Strand | RBNS enrichment (R) |
| --- | --- |
| UUUUUUCUUCCCUUCAUAUAUCCAUUCAAACUCAAUGGAAAGUUAUUAAAUAACCAUUAGAAAAGCUCAGUAGACUUAUUUGAGAAAUUAAGCCUUGUGCAGGAUGAUGG | 0.413 |
| CUUUUGUAAGGUACUGAAUACUUAAUAUGUGGGAAACCCUUUUGCGUGGUCCUUAGGCUUACAAUGUGCACUGAAUCGUUUCAUGUAAGAAUCCAAAGUGGACACCAUUA | 0.348 |
| UCCUGCAGCGUCCAGCCACGGCUCCAGGGCACUGCUCUCCUCCUUGCACCGGUGAAACUCAGGCCACACUCAAGGGCUGACUGUCCAGGCGCUCCCUUCAGCCGCCUCGU | 0.25 |
| AGAGCUGCUGCCCAGCAGAAGUCUUAGAAAUAUGCCUUGAAGCAGCCGUUGUGUAAUUAUGAGCUGGGCAGCCCAGGUAUAGUUAGUUUUAGGCUUGUAGGUUUACUUCC | 0.825 |
| ACUGCUCCCUGUGAAAUUCUGAAGGUGUUUCUUAGUGGAUUAUCGUAAAUCACUGAACCUUUUUUUCAAGAAGGACAAGAAUUUUGGAGUCUGCUAUUAAUGGACCAUAU | 0.261 |
| GUGAUGAACAUAUUCAUGACGCGUGGAAGUCAGUACGAUCAAGUUGUUGACUGUGAUUAGAUCACACCUUAAUUCAUUUCUAGACUCAAAACCUGGAGACGCAGCUACUG | 0.22 |
| AUGUAGGGGACGUCAUGUCGUUUUCAGUGACUGUCACUACCAUCCCUGCCAGUCAAGCAAUGAAUCCCAGCAGCCAUGGCCAGACAAUUCCUGUUCAGACUUUUCCUGAU | 0.375 |
| CUAAUAUUAGUAUUCAUUAUGCAUUUCUAAAUAACAGUCAUUCUGUUUGUCUUUUUAAUGCUUUAUUCAUUAUUGACAUUUGUAGUUGAGGGAUCCGGGGGUUCAAUUUA | 0.948 |
| GAGUGGGUGCUUGUGUCUGCUGUCUCAGAGGCCUUGGUCAGGAUGAAGUUGGCUGACACAGCUUAGCUUGGUUUUGCUUAUUCAAAAGAGAAAAUAACUACACAUGGAAA | 0.469 |
| UUGGUUCUGGGAAGGUAAGAUGUAGCCAGUUUUCAUCUGGGCACCUCUGAAAGAGAAGGAGUGCAGGAGAGUAAGUCUCUCAAGGACGUUCAACAAAGGACCAGCAGCAU | 1.05 |
| UGCACGGAGGAGGCUAAGACUCCAUCUCGGCCUUUGAACUCAGAGAUCCCCCUGCCUCAGCCUCCAGAGUGCUGGGAUAAAAGGUGUGGGCCACCAAGCUAGGCUAAGAA | 1.15 |
| UUAUAGGAGUUGCUCCUCUUUGCAUGGUUCUGUUCUAUAGAAGUGACUGAUAACAGCCAUUGCACUGAAGUGUGAGCUGUCCGUGUGUGACUUUAUAAAUACAGUUUUAA | 1.29 |

Block 3
Target: Interferon regulatory factor 5, full length, phosphomimetic (IRF5, Homo sapiens, UniProt Q13568-2, residues 1-514, K96S/S451D/S453D/S456D/S462D)
Technique: protein-binding microarray
Form: double-stranded DNA, one strand shown
Medium: in vitro
Concentration: 250 nM
Notes: 60-bp whole probe
Added: salmon DNA 0.4 mg/ml
Reference: random background probes
Reading: higher = stronger binding
All sequences stand within: GCCTAGCAC … GTCTTGATTCGCTTGACGCTGCTG
| Strand | log fluorescence [z-score] |
| --- | --- |
| GACGGTTTCTGTATCGGGACGTGCTAG | 4.51 |
| GACCGTTTCGGTTCCGGGACGTGCTAG | 9.56 |
| TCACCTCTCTTTCCAACACTGTGCTAG | 0.262 |
| TTAGGTTTCAGTCTCGGTTAGTGCTAG | 5.03 |
| GACGATTTCGGGTATCGAGTCGTGCTA | 4.87 |
| GACGGTATCGGGTCTCGGGACGTGCTA | 2.03 |
| TTGGTTTTCCTTATTGCTTCGTGCTAG | 1.2 |
| GACGGTCCCCTACTGCTGACGTGCTAG | -0.513 |
| TTAGAACAGAGACTGGATTAGTGCTAG | -0.13 |
| GAAGGACTGGGGACTGGGGACGTGCTA | -0.657 |
| TTAGGACTGCTGTTCCTTTAGTGCTAG | -0.207 |
| GACGATATCGGGTTTCGAGAGGTGCTA | 3.74 |
| TTAGATATCAGTCTTGATTAGTGCTAG | 1.25 |
| GCTGGGTTTTCTTGGCACAGGTGCTAG | -0.431 |
| GTAGGTTTCGGTATCGGTTAGTGCTAG | 11.5 |
| TCACATATTCTCTTCTTACTGTGCTAG | 0.967 |
| TTAGATCTCAGTCTCAATTAGTGCTAG | 0.364 |
| GGCATTTTCGGGTAGATGGCCGTGCTA | 6.63 |
| CTAGGACTGCTTCTCCTTTAGTGCTAG | -0.43 |
| AGACCATCCTGTATGGATGTGTGCTAG | -0.575 |

Block 4
Target: Sal-like protein 4, full length isoform A (SALL4, Homo sapiens, UniProt Q9UJQ4, residues 1-1053)
Chain of UniProt Q9UJQ4 (whole entry, looked up): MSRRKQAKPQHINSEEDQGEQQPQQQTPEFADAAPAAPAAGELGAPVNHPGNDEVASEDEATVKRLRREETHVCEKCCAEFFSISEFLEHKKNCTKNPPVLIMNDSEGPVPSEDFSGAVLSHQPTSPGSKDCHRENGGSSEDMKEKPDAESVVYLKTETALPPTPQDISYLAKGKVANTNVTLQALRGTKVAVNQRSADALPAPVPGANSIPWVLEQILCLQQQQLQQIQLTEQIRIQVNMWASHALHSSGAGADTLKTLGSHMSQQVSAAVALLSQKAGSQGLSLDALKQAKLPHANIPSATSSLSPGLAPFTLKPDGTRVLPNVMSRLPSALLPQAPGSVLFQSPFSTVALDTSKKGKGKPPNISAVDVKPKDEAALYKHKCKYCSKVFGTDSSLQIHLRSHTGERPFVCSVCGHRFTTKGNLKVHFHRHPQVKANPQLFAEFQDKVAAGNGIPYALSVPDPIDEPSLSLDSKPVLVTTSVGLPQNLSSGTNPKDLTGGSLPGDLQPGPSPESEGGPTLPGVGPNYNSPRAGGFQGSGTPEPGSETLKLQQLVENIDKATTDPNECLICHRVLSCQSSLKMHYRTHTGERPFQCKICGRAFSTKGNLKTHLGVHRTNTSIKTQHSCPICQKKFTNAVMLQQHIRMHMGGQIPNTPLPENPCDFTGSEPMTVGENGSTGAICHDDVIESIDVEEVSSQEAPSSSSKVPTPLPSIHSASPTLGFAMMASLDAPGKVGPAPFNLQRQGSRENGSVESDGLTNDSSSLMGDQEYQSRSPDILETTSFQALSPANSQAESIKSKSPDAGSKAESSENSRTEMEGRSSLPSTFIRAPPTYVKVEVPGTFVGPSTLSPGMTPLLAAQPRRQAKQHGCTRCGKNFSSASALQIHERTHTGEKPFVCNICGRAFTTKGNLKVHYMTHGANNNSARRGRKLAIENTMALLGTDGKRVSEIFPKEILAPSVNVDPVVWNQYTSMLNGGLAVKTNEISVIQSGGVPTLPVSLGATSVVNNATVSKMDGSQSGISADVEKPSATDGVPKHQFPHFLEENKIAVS
Technique: universal PBM
Form: double-stranded DNA, one strand shown
Medium: in vitro
Concentration: 600 nM
Notes: 8-mer, flanks averaged, mean of replicates
Reading: higher = stronger binding
| Strand | E-score |
| --- | --- |
| CAACCGAC | 0.0262 |
| GAGGCCCA | -0.285 |
| ATTGACAC | 0.0548 |
| ATGAGTGC | 0.152 |
| CACTGTTC | -0.0414 |
| CTTCAGCA | -0.106 |
| TCATAGGA | 0.257 |
| AGCAATGG | -0.0399 |
| CGAACTGC | -0.0409 |
| ACGTCTAT | 0.029 |
| CACACAGC | -0.0749 |
| TTACTGAA | 0.24 |
| TATGTCAA | 0.344 |
| CCTTCGGA | -0.27 |
| ATCTGGTC | -0.0423 |
| TGACTACA | 0.227 |
| CCGTTATC | 0.117 |
| ACATATCG | 0.114 |
| GCCAAAAC | -0.128 |
| AGCTTTAG | -0.00186 |
| AGGGTGCA | -0.19 |
| CAATAGAA | 0.114 |
| CACTTATC | 0.174 |
| ATGCCTGA | 0.0416 |
| AAACATGG | 0.0798 |

Some of these lines once more (block 4):
| Strand | E-score |
| --- | --- |
| GAGGCCCA | -0.285 |
| AAACATGG | 0.0798 |
| ACGTCTAT | 0.029 |
| ATGCCTGA | 0.0416 |
| AGGGTGCA | -0.19 |
